Experimental data collected from several papers.
A part holds a random share of what one study measured. Changes are numbered by the printed parent chain.

Study 1
Target: Hepatocyte nuclear factor 3-beta, forkhead domain (FOXA2, Homo sapiens, UniProt Q9Y261, residues 142-269)
Method: protein-binding microarray
Form: double-stranded DNA, one strand shown
Sample: in vitro
Concentration: not given
Notes: k-mer, scored over probes, only values ≥0.25
Reading: higher = stronger binding
Measurement: E-score
Residues (chain): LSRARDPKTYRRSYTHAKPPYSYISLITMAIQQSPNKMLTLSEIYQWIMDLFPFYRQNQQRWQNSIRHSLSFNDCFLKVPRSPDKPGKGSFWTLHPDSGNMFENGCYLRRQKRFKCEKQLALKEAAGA
TACAACCA: 0.288
ATAATACC: 0.319
ACATTACG: 0.276
TCTACAAA: 0.287
ACAAAATG: 0.32
GTATTTGA: 0.342
GATATTTA: 0.3
TAACAGAA: 0.31
TACTGTGA: 0.261
ATAGACAT: 0.286
TAAGAACA: 0.297
AAACAAAT: 0.341
GAGGTATA: 0.266

Study 2
Target: ABI1, truncated, D143A, DHFR fusion (Arabidopsis thaliana)
Method: DHFR PCA, deep sequencing
Sample: yeast
Notes: methotrexate growth selection, single substitutions
With: (+)-ABA 58 µM
Baseline: wild-type fitted maximum
Reading: higher = stronger binding
Measurement: relative binding score
Starting sequence: PYL1, truncated, DHFR fusion (Arabidopsis thaliana); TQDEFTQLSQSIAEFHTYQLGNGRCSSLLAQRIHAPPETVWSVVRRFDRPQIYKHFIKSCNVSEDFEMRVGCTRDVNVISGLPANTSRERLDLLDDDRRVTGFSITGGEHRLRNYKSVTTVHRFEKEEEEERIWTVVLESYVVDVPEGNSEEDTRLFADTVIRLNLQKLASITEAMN
L138D: 14.2%
Y115R: 1.25%
N165M: 1.24%
S59Q: 78.8%
D3M: 87.7%
E131T: 98.7%
F103S: -4.07%
F5S: 79.8%
D144E: 70.3%
F15H: 91.6%
P83D: 55.2%
E131D: 101%
V78S: 23.7%
F103W: 41.1%
I162V: 91.4%
S80I: 6.9%
T173W: 38.7%
G102P: -3.78%
R32K: 93.6%
T106E: 86.2%
E67T: 89.2%
L20W: 76.4%
I105R: -1.9%

Study 3
Target: CCNE1, cyclin fold, Cln2 fusion (human)
Method: yeast growth competition, sequencing
Sample: yeast
Notes: weak parent motif
Baseline: not given
Reading: higher = stronger binding
Measurement: normalised enrichment score
Starting sequence: CABLES2 docking peptide (human); ICAKRSLCAAFSV
ICAKRSLCAAFAV [S12A]: 0.592
ICAKRALCAAFSV [S6A]: 0.735
ACAKRSLCAAFSV [I1A]: -0.0197
IAAKRSLCAAFSV [C2A]: 0.346
ICAKRSLAAAFSV [C8A]: 0.475

Study 4
Target: Histone acetyltransferase KAT6A, winged helix 2, GST fusion (KAT6A, Homo sapiens, UniProt Q92794, residues 85-181)
Method: protein binding microarray
Form: double-stranded DNA, one strand shown
Sample: in vitro
Concentration: not given
Notes: 8-mer, flanks averaged, mean of 2 arrays, mostly near background
Baseline: not given
Reading: higher = stronger binding
Measurement: E-score
Target sequence (chain): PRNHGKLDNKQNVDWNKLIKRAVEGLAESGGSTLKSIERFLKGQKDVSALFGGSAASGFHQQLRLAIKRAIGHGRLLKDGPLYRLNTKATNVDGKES
CAAAATAC: 0.0434
CCCAGTTA: -0.135
CTACACAC: -0.159
CTCGCACC: 0.132
CCATGCCG: 0.301
AATGGCCG: -0.0152
AGTATCAG: -0.0799
AGTATTTA: -0.102
CTTGTCGA: 0.0126
CATATCCC: -0.0961
ATAAGTCC: -0.0759
TCTTGGAA: 0.161
TCCCTCAA: 0.0573
GCACTCCC: 0.0393
CGGTGCAA: 0.0664
CTTCGTTC: 0.0667
CTGGCCTA: -0.00434
CTTTTTTC: 0.0622
GATCGATA: -0.249
ACCCATTA: -0.164
ACCCACTC: 0.194
CGTAACTA: -0.0861
CTACTACA: -0.0427
GAAAACCA: 0.0361
AGACGCAG: 0.127

Study 5
Target: Prothrombin, mature alpha-thrombin (F2, Homo sapiens, UniProt P00734)
Method: aptamer microarray, sandwich
Form: DNA with 2'F-ANA
Sample: in vitro
Concentration: 200 nM
Notes: whole 15-mer aptamer, many near background
With: Cy3 exosite-II aptamer, 400 nM
Reading: higher = stronger binding
Measurement: mean fluorescence intensity
Oligonucleotide: GGTTGGTGTGGTTGG
2'F-ANA at 1 2 7 8 10 13: 53 a.u.
2'F-ANA at 1 2 5 6 7 10: 44.8 a.u.
2'F-ANA at 1 3 4 5 8 12 14: 45.4 a.u.
2'F-ANA at 1 2 8 9 10 14: 145 a.u.
2'F-ANA at 1 2 4 5 6 7 9 10 12 13 14 15: 62.4 a.u.
2'F-ANA at 1 2 3 4 5 6 8 11 13 15: 73.8 a.u.
2'F-ANA at 2 5 7 10: 47.3 a.u.
2'F-ANA at 1 2 3 4 5 6 7 12 13 14: 46.3 a.u.
2'F-ANA at 1 3 5 10 11 12 14 15: 44.3 a.u.
2'F-ANA at 3 4 6 7 8 9 13 15: 438 a.u.
2'F-ANA at 1 5 7 9 10 11 15: 47.1 a.u.
2'F-ANA at 1 2 3 4 5 7 8 9 12 14 15: 59.3 a.u.
2'F-ANA at 1 2 3 4 7 9 11 12 13: 196 a.u.
2'F-ANA at 5 7 8 9: 88.3 a.u.
2'F-ANA at 3 4 7 8 9 11 13 15: 547 a.u.
2'F-ANA at 5 6 7 8 10 11 12 13 15: 66.6 a.u.
2'F-ANA at 1 2 4 9 10 13 15: 44.9 a.u.
2'F-ANA at 1 4 5 6 7 9 12 14 15: 61.8 a.u.
2'F-ANA at 1 2 3 4 5 8 9 11 12 14: 49.1 a.u.
2'F-ANA at 2 3 4 5 7 8 9 10 11 12: 59.7 a.u.
2'F-ANA at 2 3 5 6 9 10 11 13 14 15: 49.1 a.u.
2'F-ANA at 2 3 4 5 6 10 11 13 15: 87.3 a.u.
2'F-ANA at 3 5 7 8 9 11 12 13 14: 87.7 a.u.

Study 6
Target: Ras GTPase-activating protein-binding protein 1, C-terminal RGG region (G3BP1, Homo sapiens, UniProt Q13283)
UniProt Q13283, sequence (whole entry, looked up): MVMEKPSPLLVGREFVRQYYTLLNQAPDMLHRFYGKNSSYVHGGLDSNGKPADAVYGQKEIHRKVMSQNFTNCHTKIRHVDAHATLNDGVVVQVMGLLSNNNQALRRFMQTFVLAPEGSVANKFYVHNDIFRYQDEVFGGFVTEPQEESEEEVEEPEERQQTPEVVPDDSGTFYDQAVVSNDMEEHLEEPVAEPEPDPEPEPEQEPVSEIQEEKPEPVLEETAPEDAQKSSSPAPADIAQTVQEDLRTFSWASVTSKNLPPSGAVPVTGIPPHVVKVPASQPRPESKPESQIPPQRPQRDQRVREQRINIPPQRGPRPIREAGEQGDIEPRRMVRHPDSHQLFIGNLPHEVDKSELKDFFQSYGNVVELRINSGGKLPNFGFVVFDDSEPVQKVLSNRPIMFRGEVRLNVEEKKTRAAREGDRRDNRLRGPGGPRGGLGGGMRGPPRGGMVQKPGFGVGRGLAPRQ
Method: RNA Bind-n-Seq
Form: RNA
Sample: in vitro
Concentration: 1 µM
Notes: whole 134-nt RNA, ends assumed
With: 150 mM KCl
Baseline: input library
Reading: higher = stronger binding
Measurement: log2 enrichment
Shared flanks, not repeated: GGGAGUUCUACAGUCCGACGAUC … UGGAAUUCUCGGGUGUCAAGG
UCAAGUCCUGUGCUACACAUCGUAUGUACCGAAUCGGGUGGGUUUGGGUUUGGGAAAGUAUUAUGUUACGCCGUUCGGAUCUGCACUUCC: 1.73
UCCUCAAGUCCUGUGCUACACAUCGUAUGUACCGAAUCGGAGGUGGUUUGGAAAGUAUUAUGUUACGCCGUUCGGAUCUGCACUUCCAGC: -0.93
CACAGACAACACGCACCCACACAGACACAGAGGGAAGGGGUUGGGAUGGGGACAGGGUGCACAGCAGGGCGGGGUAGGCCCCCAGCCCCU: -1.37
GUCCUGUGCUACACAUCGUAUGUACCGAAUCGGGAGGGAAAAAAAGGGAAAAAAAGGGAAAGUAUUAUGUUACGCCGUUCGGAUCUGCAC: -0.23
UCGUUCCCCCCGCCACGAGAAGAAGAAGAAGGUCCGUAAAUACUGGGACGUGCCACCCCCAGGCUUUGAGCACAUCACCCCAAUGCAGUA: 0.0274
UCCUCAAGUCCUGUGCUACACAUCGUAUGUACCGAAUCGGUGGUGGGUGGGAAAGUAUUAUGUUACGCCGUUCGGAUCUGCACUUCCAGC: 0.084
GCAGGAAGUAAAAACAAAUGGAAAUGCUUCGGAUAGUGGCAGGGGUGGGGGUUGCUAAGGAAAGGGUAGGAUGGGAGUGGGUAAAGAGUU: 2.08
AAGUCCUGUGCUACACAUCGUAUGUACCGAAUCGGGGAGGGGAAAAAGGGGUGGGGAAAGUAUUAUGUUACGCCGUUCGGAUCUGCACUU: 2.39
UGGCCCUGGUGGCAUGCGGGGAGGAAUAGGUGGCCUCAUGGAUCGUGGUGGUCCCGGUGGAAUGUUCAGAGGUGGCCGUGGUGGAGACAG: 2.06
CCUCAAGUCCUGUGCUACACAUCGUAUGUACCGAAUCGGCCGGCCGGCCGGGGAAAGUAUUAUGUUACGCCGUUCGGAUCUGCACUUCCA: -1.14
AGUCCUGUGCUACACAUCGUAUGUACCGAAUCGGGGAAAAGGGAAAAGGGAAAAGGGGAAAGUAUUAUGUUACGCCGUUCGGAUCUGCAC: 0.799
ACAAGUGGAGGAGAAGAACUUAGAAGAACUAGAGGAGAAAUCUACUACUCCUCCUCCGGCAGAACCUGUUUCUCUGCCACAAGAACCACC: -0.794
CAAGUCCUGUGCUACACAUCGUAUGUACCGAAUCGGGUGGGUGGGAAAAAAAGGGAAAGUAUUAUGUUACGCCGUUCGGAUCUGCACUUC: 0.218
UCAUGUGGAUGAAGCAGAAAAAGAAGCUCAGAAGAAGCCAGCUGAAUCUCAAAAAAUAGAGCGUGAAGAUGCCCUGGCUUUUAAUUCAGC: -1.81

Study 7
Target: RING finger protein unkempt homolog, zinc fingers 1-6, GST-SBP tag (UNK, Homo sapiens, UniProt Q9C0B0, residues 30-357)
UniProt Q9C0B0, sequence (30-357, looked up): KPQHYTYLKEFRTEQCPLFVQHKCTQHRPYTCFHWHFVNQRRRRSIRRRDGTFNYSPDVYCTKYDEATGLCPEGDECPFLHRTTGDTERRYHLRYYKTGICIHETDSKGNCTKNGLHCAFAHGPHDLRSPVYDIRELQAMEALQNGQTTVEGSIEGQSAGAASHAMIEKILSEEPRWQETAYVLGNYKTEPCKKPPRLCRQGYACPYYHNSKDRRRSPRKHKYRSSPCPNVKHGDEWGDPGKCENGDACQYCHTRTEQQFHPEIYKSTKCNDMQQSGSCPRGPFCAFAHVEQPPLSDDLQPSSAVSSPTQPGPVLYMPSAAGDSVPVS
Method: RNA Bind-n-Seq
Form: RNA
Sample: in vitro
Concentration: not given
Notes: RNA with constant flanks, ends assumed
Baseline: input RNA pool
Reading: higher = stronger binding
Measurement: bound/input enrichment
Shared flanks, not repeated: GGGAGUUCUACAGUCCGACGAUC … CAACAGAGGAUUGAGCAUCA
GGAUAUUUCACAAAACCUCCGAUUGCAGCUCAUGCUUCAAGAUCUGCAGAAUCUAAGACUACCGAAUUUGGGAAAACUAAUUUUGUUCAGCCCAUGCCGGGUGAAGGAUUAAGGCCAUCU: 0.107 ratio
UAUACUUCAUUGGGACCACGAGUAACUGAUGUAGCCACAUAAGGAGACAUAGGUUAUAAACCCGUUAUCUUUUAAAAGGCUCAGCAACACAACUCUUGAAAUGCUUAUCAGGAUAAUGGU: 0.144 ratio
UAAACAUCUCACAUAUGAAAAUGUAGAGCGAUGGCUGAAAGAACUGAGAGAUCAUGCUGACCGUAACAUUGUUAUCAUGCUUGUGGGCAAUAAGAGUGAUCUACGUCAUCUCAGGGCAGU: 0.135 ratio
GGGCGGCCGGUGGGGGAAUCCCCUGCCUUGGCCUUGCCUCCCCUUCCUGCCACGUGCCCCCCGUUAUUUUUUUUUUUUUAACACCAUGUGAUUAAGGUCGGCGCUGCCUCCCCCGACCCA: 4.77 ratio
GAUCACUUCAUUUCUAAGUGUUUUAAGUGGGGAGCAAAGUACAUGUUAAAAGCAUGUUGCAUCCGAUAUAAAUUCAGUUUUUUAAACUCUUACCAAUGUAAGAACUGCAGAAAUAUUUUU: 0.144 ratio
AGUCUUCAGGAUACUGUAGCUUCCUCUGUAGAGAACUUCGUUUUAAUAGACACUGUACAACCGUGGUGUUUUACUUCACUGAAUCACACCUUUGUUCUGAAAGUGUGAUACAGAGUAUAA: 1.91 ratio
UUUAAUGUAUAAAGAUUUUCUAGGAAAUGAUAUUGUGUAUUAAGACAUUCCUUAAUUAAAUCCGGACAAAAUGGCUGCUGUAUAUUUACAAUAUGGAAUUCUGAGUUAAGUACCGCCCUU: 0.923 ratio
UAUCCAAAUCUAAACAUGAUUGAGACAUUCAUAUGUCAAGUGUGUGAGGAAACCCUUGCACACCGUGUGGAUUCCCUUGAGCAGCUGACUGGAAUAAGGAUGCUUAGACACCUCACUAUG: 0.316 ratio
UAUUAUGGAAUACCAAAGUGAAGGGAUUUUGUCAUUCAGCAGACUGUUUCAUAUCCAGAACCGUUCUUCCCUUACCCUUUCAGUCAUAAUUAAAAACCUAAGCUUUCUGGUAAAGUAGGA: 0.348 ratio
GACCACAUUGCUGGAGAUGAGGAUCACACAGAUGGAGUAGUAGCUUGUGCUGCUGGACUAACCGGGGACUUAUGUACAGCAUUUGGGAAGGAUGUACUGAAAUUAGUAGAAGCUAGGCCA: 0.86 ratio
AAACACGAGCGGAUUGAAAACGACGUGGCCACCAUCCUGUCUCGCCGCAUUGCUGUGGAGUACCGCGACUCGGAAGAUGACUCGGAGUUCGAUGAAGUAGACUGGCUGGAGUAAGAAAGC: 0.168 ratio

A few entries again (study 2):
N165M: 1.24%
S59Q: 78.8%
D3M: 87.7%
E131T: 98.7%
F103S: -4.07%
F5S: 79.8%
D144E: 70.3%
F15H: 91.6%
P83D: 55.2%
E131D: 101%
V78S: 23.7%
F103W: 41.1%
I162V: 91.4%
S80I: 6.9%
